Measurements from different studies.
Each numbered part is a random draw from the data of one study; scales do not carry over between parts. Values joined by “and” are separate records of one study, mostly repeats; a detail may differ.
Chain of UniProt Q6P2M8 (whole entry, looked up): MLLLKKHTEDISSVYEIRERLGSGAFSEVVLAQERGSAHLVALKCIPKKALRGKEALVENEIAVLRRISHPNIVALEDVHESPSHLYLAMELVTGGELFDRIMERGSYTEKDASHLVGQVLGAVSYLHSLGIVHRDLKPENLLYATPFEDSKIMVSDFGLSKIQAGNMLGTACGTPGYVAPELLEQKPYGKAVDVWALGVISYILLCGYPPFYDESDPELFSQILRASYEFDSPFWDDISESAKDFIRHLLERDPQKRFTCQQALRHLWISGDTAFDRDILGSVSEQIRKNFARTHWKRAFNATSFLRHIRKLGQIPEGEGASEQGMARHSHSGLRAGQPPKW
Chain of UniProt Q16566 (whole entry, looked up): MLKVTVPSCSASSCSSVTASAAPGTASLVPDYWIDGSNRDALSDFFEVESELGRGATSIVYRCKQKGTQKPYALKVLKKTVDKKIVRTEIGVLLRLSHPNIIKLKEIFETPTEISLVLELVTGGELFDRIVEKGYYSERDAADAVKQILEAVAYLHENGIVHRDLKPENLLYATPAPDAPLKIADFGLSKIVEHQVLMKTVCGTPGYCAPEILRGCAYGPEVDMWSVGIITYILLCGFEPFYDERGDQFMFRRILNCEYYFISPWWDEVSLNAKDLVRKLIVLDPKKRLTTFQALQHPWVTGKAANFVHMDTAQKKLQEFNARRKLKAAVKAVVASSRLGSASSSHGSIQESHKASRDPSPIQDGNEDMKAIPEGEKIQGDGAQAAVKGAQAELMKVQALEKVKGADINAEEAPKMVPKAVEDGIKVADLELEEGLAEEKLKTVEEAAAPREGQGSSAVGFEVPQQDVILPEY
Chain of UniProt Q8WXR4 (whole entry, looked up): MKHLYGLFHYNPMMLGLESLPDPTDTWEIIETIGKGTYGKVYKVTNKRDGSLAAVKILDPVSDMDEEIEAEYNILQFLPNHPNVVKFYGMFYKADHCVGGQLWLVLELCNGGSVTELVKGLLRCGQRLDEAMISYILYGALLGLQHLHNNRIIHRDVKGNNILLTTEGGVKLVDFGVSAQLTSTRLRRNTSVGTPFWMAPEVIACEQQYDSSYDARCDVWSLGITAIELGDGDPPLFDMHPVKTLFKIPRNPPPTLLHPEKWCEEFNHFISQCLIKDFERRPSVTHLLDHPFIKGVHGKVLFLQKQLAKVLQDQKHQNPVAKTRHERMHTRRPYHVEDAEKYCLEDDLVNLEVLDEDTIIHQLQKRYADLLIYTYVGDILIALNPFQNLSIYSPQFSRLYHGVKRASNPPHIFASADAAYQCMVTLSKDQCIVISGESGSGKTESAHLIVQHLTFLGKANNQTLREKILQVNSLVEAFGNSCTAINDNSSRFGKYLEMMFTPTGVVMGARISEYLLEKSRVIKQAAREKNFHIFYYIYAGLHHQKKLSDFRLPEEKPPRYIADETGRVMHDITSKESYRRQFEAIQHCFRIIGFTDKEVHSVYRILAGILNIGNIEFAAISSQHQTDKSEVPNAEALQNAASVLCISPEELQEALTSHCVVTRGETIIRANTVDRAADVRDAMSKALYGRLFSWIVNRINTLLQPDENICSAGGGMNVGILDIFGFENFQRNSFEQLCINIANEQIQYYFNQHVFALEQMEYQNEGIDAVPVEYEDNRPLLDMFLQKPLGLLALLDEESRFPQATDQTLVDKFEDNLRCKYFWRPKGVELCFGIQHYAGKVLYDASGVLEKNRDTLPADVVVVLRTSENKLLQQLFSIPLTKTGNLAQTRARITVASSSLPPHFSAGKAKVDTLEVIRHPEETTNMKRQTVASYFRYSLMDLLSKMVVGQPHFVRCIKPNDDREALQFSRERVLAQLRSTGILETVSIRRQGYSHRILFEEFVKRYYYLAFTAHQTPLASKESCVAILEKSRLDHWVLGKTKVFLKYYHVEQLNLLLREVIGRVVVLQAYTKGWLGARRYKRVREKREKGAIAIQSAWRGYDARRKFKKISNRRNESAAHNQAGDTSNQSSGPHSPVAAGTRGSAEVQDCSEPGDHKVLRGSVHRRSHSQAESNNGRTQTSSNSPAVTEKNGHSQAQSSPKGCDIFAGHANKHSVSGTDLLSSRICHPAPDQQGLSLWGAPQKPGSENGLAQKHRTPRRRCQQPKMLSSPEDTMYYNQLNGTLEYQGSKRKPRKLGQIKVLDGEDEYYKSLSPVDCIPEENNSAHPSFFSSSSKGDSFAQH
Chain of UniProt Q8N568 (whole entry, looked up): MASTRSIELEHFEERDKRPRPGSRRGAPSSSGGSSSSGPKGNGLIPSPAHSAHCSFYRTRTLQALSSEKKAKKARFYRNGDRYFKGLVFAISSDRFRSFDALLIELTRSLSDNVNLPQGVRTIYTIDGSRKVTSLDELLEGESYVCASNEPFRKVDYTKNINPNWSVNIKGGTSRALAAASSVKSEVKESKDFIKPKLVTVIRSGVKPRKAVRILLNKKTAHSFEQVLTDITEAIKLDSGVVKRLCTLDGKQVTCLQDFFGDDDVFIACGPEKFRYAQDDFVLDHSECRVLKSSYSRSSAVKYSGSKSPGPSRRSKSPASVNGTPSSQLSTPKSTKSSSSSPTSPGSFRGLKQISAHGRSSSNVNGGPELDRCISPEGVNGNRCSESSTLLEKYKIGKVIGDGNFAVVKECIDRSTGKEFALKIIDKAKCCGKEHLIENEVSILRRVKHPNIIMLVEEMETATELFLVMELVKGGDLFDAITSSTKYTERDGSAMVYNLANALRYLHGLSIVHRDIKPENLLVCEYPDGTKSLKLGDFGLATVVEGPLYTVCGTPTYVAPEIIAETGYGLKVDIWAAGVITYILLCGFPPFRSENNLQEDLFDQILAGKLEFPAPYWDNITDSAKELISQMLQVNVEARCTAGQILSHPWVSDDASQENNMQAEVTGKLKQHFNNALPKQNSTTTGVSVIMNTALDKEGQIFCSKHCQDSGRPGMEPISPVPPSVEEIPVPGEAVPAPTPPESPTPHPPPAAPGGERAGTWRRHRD
Chain of UniProt Q16832 (whole entry, looked up): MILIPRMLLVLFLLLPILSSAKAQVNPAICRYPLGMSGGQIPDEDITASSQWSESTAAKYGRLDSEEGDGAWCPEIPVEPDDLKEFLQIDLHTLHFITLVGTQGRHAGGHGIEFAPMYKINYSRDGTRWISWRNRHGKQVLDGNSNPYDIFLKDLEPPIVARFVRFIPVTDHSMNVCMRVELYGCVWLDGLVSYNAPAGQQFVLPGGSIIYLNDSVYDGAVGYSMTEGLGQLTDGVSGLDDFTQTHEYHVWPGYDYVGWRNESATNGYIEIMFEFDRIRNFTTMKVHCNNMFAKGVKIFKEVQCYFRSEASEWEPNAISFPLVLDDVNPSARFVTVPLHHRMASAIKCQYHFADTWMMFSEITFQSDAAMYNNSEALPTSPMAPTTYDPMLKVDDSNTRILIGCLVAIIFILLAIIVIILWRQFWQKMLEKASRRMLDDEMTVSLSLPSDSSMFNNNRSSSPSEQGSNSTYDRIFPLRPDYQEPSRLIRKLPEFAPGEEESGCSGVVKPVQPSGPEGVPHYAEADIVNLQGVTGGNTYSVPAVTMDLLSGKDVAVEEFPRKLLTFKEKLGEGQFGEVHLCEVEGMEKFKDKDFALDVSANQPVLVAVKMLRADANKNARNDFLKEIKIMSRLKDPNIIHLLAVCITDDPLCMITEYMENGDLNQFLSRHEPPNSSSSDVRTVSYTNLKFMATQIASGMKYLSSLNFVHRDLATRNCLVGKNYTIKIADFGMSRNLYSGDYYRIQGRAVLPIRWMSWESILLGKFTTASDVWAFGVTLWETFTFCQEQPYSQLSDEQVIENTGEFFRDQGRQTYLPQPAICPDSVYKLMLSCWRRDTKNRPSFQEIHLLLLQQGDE
Chain of UniProt Q13237 (whole entry, looked up): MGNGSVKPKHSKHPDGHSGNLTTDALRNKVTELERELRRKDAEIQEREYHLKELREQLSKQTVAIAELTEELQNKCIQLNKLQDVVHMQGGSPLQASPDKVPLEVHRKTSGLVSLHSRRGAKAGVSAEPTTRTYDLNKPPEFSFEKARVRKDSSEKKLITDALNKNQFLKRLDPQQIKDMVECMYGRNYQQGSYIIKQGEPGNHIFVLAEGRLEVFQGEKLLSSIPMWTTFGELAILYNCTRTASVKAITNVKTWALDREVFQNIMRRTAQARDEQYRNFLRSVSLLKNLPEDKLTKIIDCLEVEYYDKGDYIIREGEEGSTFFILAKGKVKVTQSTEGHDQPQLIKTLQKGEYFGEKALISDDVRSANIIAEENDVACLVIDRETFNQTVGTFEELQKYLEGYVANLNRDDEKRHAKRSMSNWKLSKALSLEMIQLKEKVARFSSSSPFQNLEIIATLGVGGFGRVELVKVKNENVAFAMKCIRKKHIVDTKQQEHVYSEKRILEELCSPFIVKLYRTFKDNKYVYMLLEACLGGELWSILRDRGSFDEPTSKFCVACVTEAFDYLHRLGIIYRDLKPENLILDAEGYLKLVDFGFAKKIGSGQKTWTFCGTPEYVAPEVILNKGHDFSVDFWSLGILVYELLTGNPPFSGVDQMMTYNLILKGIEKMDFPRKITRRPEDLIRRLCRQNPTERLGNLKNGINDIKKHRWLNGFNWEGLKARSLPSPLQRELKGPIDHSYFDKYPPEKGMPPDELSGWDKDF
Chain of UniProt Q15759 (whole entry, looked up): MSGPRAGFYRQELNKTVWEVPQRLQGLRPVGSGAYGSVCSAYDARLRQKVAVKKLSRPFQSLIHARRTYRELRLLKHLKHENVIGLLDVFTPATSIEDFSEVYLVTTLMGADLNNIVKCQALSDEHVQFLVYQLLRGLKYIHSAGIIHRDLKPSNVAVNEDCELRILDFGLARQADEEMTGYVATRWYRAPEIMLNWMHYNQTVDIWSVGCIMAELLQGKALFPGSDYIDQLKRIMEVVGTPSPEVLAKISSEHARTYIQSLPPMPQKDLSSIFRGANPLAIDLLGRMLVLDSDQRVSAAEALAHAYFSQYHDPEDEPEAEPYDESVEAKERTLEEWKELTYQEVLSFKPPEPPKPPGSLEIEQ

Block 1 — Compound: COc1ccc2c(c1)/C(=C/c1cnc[nH]1)C(=O)N2; observed: enzyme activity; mode: inhibitor; concentration: 0.5 µM; baseline: control
The remaining activity was 99.7% (PRKG2 (Homo sapiens, UniProt Q13237)).
The remaining activity was 103% (MAPK11 (Homo sapiens, UniProt Q15759)).
Myosin-IIIb (MYO3B, Homo sapiens, UniProt Q8WXR4) — remaining activity: 88%.
The remaining activity was 95.5% (DDR2 (Homo sapiens, UniProt Q16832)).
It gave 37.4% for remaining activity (MARK4 (Homo sapiens, UniProt Q96L34)).
The remaining activity was 86.3% (PNCK (Homo sapiens, UniProt Q6P2M8)).
The remaining activity was 104% (CDC42BPB (Homo sapiens, UniProt Q9Y5S2)).
It gave 96% for remaining activity (DCLK2 (Homo sapiens, UniProt Q8N568)).
MAP2K1 (Homo sapiens, UniProt Q02750) — remaining activity: 94.8%.
The remaining activity was 93% (PLK3 (Homo sapiens, UniProt Q9H4B4)).
It gave 99.2% for remaining activity (PAK3 (Homo sapiens, UniProt O75914)).
The remaining activity was 93.6% (GRK4 (Homo sapiens, UniProt P32298)).
It gave 97.4% for remaining activity (CAMK4 (Homo sapiens, UniProt Q16566)).

Block 2 — Compound: CCOc1ccc(Nc2c3c(nc4ccccc24)CCC3)cc1; organism: Leishmania donovani
For parasite growth; DD8 amphotericin B-resistant, promastigotes; 33.33 µM: inhibition read 100% and 99% and 98%.
For DD8 resistant line, promastigotes; 6.66 µM, resistance confirmation: inhibition read 34%.
For parasite growth; 66.66 µM, promastigote: inhibition read 99%.
The inhibition was 56% and 58% and 61% and 55% and 57% and 48% (parasite growth; DD8 amphotericin B-resistant, intracellular amastigotes; 0.8 µM).
For DD8 resistant line, promastigotes; 16.66 µM, resistance confirmation: inhibition read 63%.
parasite growth; DD8 amphotericin B-resistant, intracellular amastigotes; 0.008 µM — inhibition: 7% and 1% and -7% and 2%.
DD8 resistant line, promastigotes; 33.33 µM, resistance confirmation — inhibition: 84%.
The inhibition was 93% and 94% and 88% and 91% (parasite growth; DD8 amphotericin B-resistant, promastigotes; 16.66 µM).

Block 3 — cell line: HEK-293T; observed: pseudovirus infection; technique: FDA-approved drug library counter-screen; organism: VSV pseudotyped with VSV-G; concentration: 10 µM; time: 16 h; baseline: vehicle-treated
`CC1=NS(=O)(=O)c2cc(Cl)ccc2N1` gave a GFP-positive cells of 113%.
`Nc1ncnc2c1ncn2[C@@H]1O[C@H](CO)[C@@H](O)[C@@H]1O` gave a GFP-positive cells of 109%.
`N=C(N)NC(=O)c1nc(Cl)c(N)nc1N` gave a GFP-positive cells of 107%.
The GFP-positive cells of `Nc1nnc(-c2cccc(Cl)c2Cl)c(N)n1` is reported as 108%.
`CCN(CC)C(=S)SSC(=S)N(CC)CC` has a GFP-positive cells of 122%.
`COc1c(C)c2c(c(O)c1C/C=C(\C)CCC(=O)OCCN1CCOCC1)C(=O)OC2` has a GFP-positive cells of 0.85%.
For `NS(=O)(=O)c1cc2c(cc1Cl)N=C(CSCc1ccccc1)NS2(=O)=O`, the GFP-positive cells was 97.5%.
For `CNCC(O)c1ccc(OC(=O)C(C)(C)C)c(OC(=O)C(C)(C)C)c1` (stereo not drawn), the GFP-positive cells was 111%.
`CC(=O)Oc1ccc(C(c2ccc(OC(C)=O)cc2)c2ccccn2)cc1` has a GFP-positive cells of 118%.
`CCCCCCCCCCCCCCCC[N+](C)(C)CCN(Cc1ccc(OC)cc1)c1ncccn1` gave a GFP-positive cells of 106%.
With `C[N+](C)(C)CCCCCCCCCC[N+](C)(C)C` the GFP-positive cells was 87.8%.
The GFP-positive cells of `OC(c1cc(C(F)(F)F)nc2c(C(F)(F)F)cccc12)C1CCCCN1` (stereo not drawn) is reported as 91.5%.
With `C[C@@H](O[C@H]1OCCN(Cc2n[nH]c(=O)[nH]2)[C@H]1c1ccc(F)cc1)c1cc(C(F)(F)F)cc(C(F)(F)F)c1` the GFP-positive cells was 148%.
`c1ccc(CC2=NCCN2)cc1` gave a GFP-positive cells of 118%.

Single results of other studies
The viability of `CN[C@@H]1C[C@H]2O[C@@](C)([C@@H]1OC)n1c3ccccc3c3c4c(c5c6ccccc6n2c5c31)C(=O)NC4` is reported as 0.9% (normal-adjacent epithelium patient-derived organoids sample E; CellTiter-Glo; 1 µM; baseline: DMSO).
`CNC(=O)c1cc(C(=O)NC2CC2)cn(Cc2ccccc2)c1=O` has a viability of 88% (normal-adjacent epithelium patient-derived organoids sample E; CellTiter-Glo; 1 µM; baseline: DMSO).
With `CC(=O)C1=C(C)N(c2cccc(C(F)(F)F)c2)C(=O)N[C@@H]1c1ccc(C#N)nc1` the remaining binding was 94.8% (CDPK1 (Plasmodium falciparum, UniProt P62344); cell-free assay, competition with immobilised ligand; 1 µM).
`O=C1NC(c2ccccn2)Sc2ccccc21` (stereo not drawn) has an inhibition of -11.2% (SLC6A4 (Homo sapiens, UniProt P31645); ligand displacement; 10 µM).

Repeated from above (block 1):
The remaining activity was 95.5% (DDR2 (Homo sapiens, UniProt Q16832)).
It gave 37.4% for remaining activity (MARK4 (Homo sapiens, UniProt Q96L34)).
The remaining activity was 86.3% (PNCK (Homo sapiens, UniProt Q6P2M8)).
